{"data": "Assay results pooled from the literature", "note": "Lines come from different studies, so protocols differ. ± gives the spread as reported."}
{"SMILES": "N#Cc1c(N)nc2c(c1-c1ccc(CO)o1)CCc1cc(O)ccc1-2", "cell line": "HH", "test": "cell growth or viability, ATP luminescence", "IC50": "10.6 µM"}
{"SMILES": "CCOC(=O)/C=C1\\S/C(=N\\N=C\\c2cccc3cc4ccccc4nc23)N(C)C1=O", "cell line": "PATU", "test": "cell proliferation, MTT", "conditions": "48 h", "IC50": "> 50 µM"}
{"SMILES": "COc1ccc(Br)c2c1OC1=C(C(=O)CCC1)C2c1c[nH]c2ccccc12 (stereo not drawn)", "cell line": "3T3-L1 pre-adipocytes", "test": "cell viability, MTT", "conditions": "72 h", "IC50": "> 100 µg/mL"}
{"SMILES": "Nc1cc2cccnc2c2ncccc12.[Cl-].[Cl-].[Ru+2].c1cnc2c(c1)ccc1cccnc12.c1cnc2c(c1)ccc1cccnc12", "cell line": "HFF-1", "test": "cell viability, MTT", "conditions": "1 h preincubation, then 48 h, added: blue light", "IC50": "41.1 ± 1.04 µM"}
{"SMILES": "CC1(C)CC(=O)C2=C(C1)Oc1c(O)cccc1C2n1nnc2ccccc21 (stereo not drawn)", "cell line": "3T3-L1 pre-adipocytes", "test": "cell viability, MTT", "conditions": "72 h", "IC50": "78.8 ± 1.43 µg/mL"}
{"SMILES": "Cn1ncc(-c2ccc3c(=O)[nH]nc(CN)c3c2)c1-c1c(F)c(Cl)cc(OC2CC2)c1C#N", "cell line": "NCI-H2122", "test": "cell viability, inhibitor, CellTiter-Glo", "conditions": "120 h, baseline-subtracted", "IC50": "3.21 µM"}
{"SMILES": "COc1ccc(C(=O)Oc2ccc(NC(=O)Cc3nn(C)c(=O)c4ccccc34)cc2)cc1", "cell line": "HEK293-A GFP-LC3B", "test": "LC3B puncta formation", "conditions": "22 h, added: chloroquine, torin1", "IC50": "> 20 µM"}
{"SMILES": "O=C(CCl)c1ccccc1Nc1cccc(C(F)(F)F)c1", "cell line": "HEK293A LATS1/2 double knockout", "test": "TEAD reporter gene, GTIIC luciferase", "conditions": "24 h", "IC50": "7.01 µM"}
{"SMILES": "CCN(C(=O)c1cc(F)ccc1Oc1nncnc1N1CCC2(C1)CN([C@H](CCCN(C)CCOC)C(C)C)C2)C(C)C", "cell line": "MV4-11 (KMT2A-AF4, FLT3-ITD)", "test": "inhibitor, QuantiGene multiplex, measured: FLT3 mRNA", "IC50": "0.053 ± 0.005 µM"}
{"SMILES": "Cc1ccc([N+](=O)[O-])cc1S(=O)(=O)N(C)/N=C/c1cnc2ccc(Br)cn12", "cell line": "SN12C", "test": "MTS", "conditions": "NCI60 panel", "IC50": "0.468 µM"}
{"SMILES": "CC1(C)CC(=O)C(C2C3=C(CC(C)(C)CC3=O)Oc3ccc(Br)cc32)=C(O)C1 (stereo not drawn)", "cell line": "3T3-L1 pre-adipocytes", "test": "cell viability, MTT", "conditions": "72 h", "IC50": "> 1000 µg/mL"}
{"SMILES": "COc1ccc2c(c1)Cc1c-2nc(N)c(C#N)c1-c1ccc(CO)o1", "cell line": "HH", "test": "cell growth or viability, ATP luminescence", "IC50": "6.1 µM"}
{"SMILES": "C=CC(=O)N1CCCC(n2c(=O)c3ncccc3n(Cc3ccc(Oc4ccccc4)cc3)c2=O)C1 (stereo not drawn)", "cell line": "WSUDLCL2", "test": "cell growth or viability, MTT", "conditions": "72 h", "IC50": "0.1 µM"}
{"SMILES": "O=S(=O)(N[C@@H]1CCC[C@H](N2c3ccccc3Oc3ccccc32)[C@H]1O)c1ccc(OC(F)(F)F)cc1", "cell line": "E98", "test": "cell viability, CellTiter-Glo", "conditions": "72 h", "IC50": "15.5 µM"}
{"SMILES": "CCCN1C(=O)CS/C1=N\\N=C\\c1cccc2cc3ccccc3nc12", "cell line": "PATU", "test": "cell proliferation, MTT", "conditions": "48 h", "IC50": "24.2 ± 3.9 µM"}
{"SMILES": "CCn1nc(Cl)c2c1-c1cnc(N)c(c1)O[C@H](C)c1cc(F)ccc1-c1nn(C)cc1C2", "cell line": "Ba/F3 EML4-ALK variant 1 L1196Q", "test": "cell viability", "IC50": "0.00975 µM"}
{"SMILES": "CCOC(=O)/C=C1\\S/C(=N\\N=C\\c2cccc3cc4ccccc4nc23)N(c2ccc([N+](=O)[O-])cc2)C1=O", "cell line": "PATU", "test": "cell proliferation, MTT", "conditions": "48 h", "IC50": "> 50 µM"}
{"SMILES": "Cc1nc(C(=O)NC2(O)C(=O)c3ccccc3C2=O)cs1", "cell line": "HEK293-A GFP-LC3B", "test": "LC3B puncta formation", "conditions": "22 h, added: chloroquine, torin1", "IC50": "> 20 µM"}
{"SMILES": "O=C(NCc1cc(F)cc(F)c1)[C@@]1(O)CCN(c2ccc3[nH]ccc3c2)C1=O", "cell line": "C6", "test": "cell growth or viability", "IC50": "1 µM"}
{"SMILES": "CNS(=O)(=O)Nc1nccc(Cc2c(C)c3ccc(Oc4ncccc4F)cc3oc2=O)c1F", "cell line": "SW780", "test": "cell viability", "conditions": "7 days", "IC50": "0.0216 µM"}
{"SMILES": "CN1CC[C@@H](COc2cnc(C#N)cc2-c2ccn3nc(NC(=O)C4CC4)cc3c2)C1", "cell line": "human monocyte-derived macrophages", "test": "TNF release", "conditions": "3 h, added: LPS", "IC50": "0.94 µM"}
{"SMILES": "CCOC(=O)C1CC(CC)C2C=CC3CCN(C(=O)C4CCC5C=CC6(CCCN6C(=O)C(Cc6ccccc6Cl)NC(C)=O)C(=O)N54)C3C(=O)N12 (stereo not drawn)", "cell line": "MDA-MB-231 expressing mCherry", "test": "cell invasion, Boyden chamber", "IC50": "12 µM"}
{"SMILES": "CCOc1cncc(-c2ccc(NC(=O)C3(c4ccnc(NS(=O)(=O)C5CC5)n4)CCOCC3)nc2)n1", "cell line": "Malme-3M", "test": "cell proliferation, CellTiter-Glo", "conditions": "72 h, Melanoma cancer", "IC50": "10 µM"}
{"SMILES": "CC(C)c1ccc(N(C)c2ccc3c(c2)OCC[C@H]3CNc2cnccc2C(=O)O)cc1", "cell line": "MES-SA", "test": "cell growth or viability, ATP luminescence", "conditions": "7 days", "IC50": "0.0143 µM"}
{"SMILES": "CC(C)CN1C(=O)CS/C1=N\\N=C\\c1cccc2cc3ccccc3nc12", "cell line": "PATU", "test": "cell proliferation, MTT", "conditions": "48 h", "IC50": "25.5 ± 4.1 µM"}
{"SMILES": "C=CC(=O)N1C[C@H](C)N(c2nc(OC[C@@]34CCCN3C[C@H](F)C4)nc3c(F)c(-c4ccc(F)c5sc(N)c(C#N)c45)c(C(F)(F)F)cc23)C[C@H]1C", "cell line": "Ba/F3 expressing KRAS G12C/Y96D", "test": "cell viability, CellTiter-Glo", "conditions": "3 days", "IC50": "0.0035 µM"}
{"SMILES": "C=CC(=O)Nc1ccc(F)c(-c2ncnc3[nH]cc(C(=O)OCC)c23)c1", "cell line": "mouse CD4 T-cell blasts", "test": "measured: STAT1 phosphorylation", "conditions": "JAK1/JAK2 dependent, added: IFN-gamma", "IC50": "> 10 µM"}
{"SMILES": "C1=[N+]2CCCC[N+]3=Cc4ccc5[n]4[Au-]23[n]2c1ccc2-c1nc2ccccc2nc1-5.F[P-](F)(F)(F)(F)F", "cell line": "SN12C", "conditions": "NCI60 five-dose screen", "IC50": "3.2 µM"}
{"SMILES": "CC1(C)CC(=O)C(C2C3=C(CC(C)(C)CC3=O)Oc3ccc(Cl)cc32)=C(O)C1 (stereo not drawn)", "cell line": "3T3-L1 pre-adipocytes", "test": "cell viability, MTT", "conditions": "72 h", "IC50": "56.5 ± 1.07 µg/mL"}
{"SMILES": "Cc1ccc(N2C(=O)CCSC23C(=O)N(Cc2ccc(F)cc2)c2ccccc23)cc1C (stereo not drawn)", "cell line": "HEK293-A GFP-LC3B", "test": "LC3B puncta formation", "conditions": "22 h, added: chloroquine, torin1", "IC50": "11.2 µM"}
{"SMILES": "COc1ccc(C(O)=CC(=O)c2ccc(C(C)(C)C)cc2)cc1.[Ru+2].c1ccc(-c2ccccn2)nc1.c1ccc(-c2ccccn2)nc1", "cell line": "DU-145", "test": "cytotoxicity", "conditions": "dark", "IC50": "0.093 µM"}
{"SMILES": "C[C@H]1[C@H](C)CC[C@]2(C)CC[C@]3(C)C(=CC(=O)[C@@H]4[C@@]5(C)CC[C@@H](O)[C@](C)(C(=O)O)[C@@H]5CC[C@]43C)[C@H]12", "cell line": "HDF", "test": "cell growth or viability, MTT", "conditions": "24 h", "IC50": "194 µM"}
{"SMILES": "C[C@H]1CN(C2COC2)CCN1c1ccc(Nc2cc(-c3ccnc(N4CCn5c(cc6c5CC(C)(C)C6)C4=O)c3CO)cn(C)c2=O)nc1", "cell line": "TMD8", "test": "cell growth or viability, ATP luminescence", "conditions": "96 h", "IC50": "0.0084 µM"}
{"note": "Repeated from above:"}
{"SMILES": "Cc1nc(C(=O)NC2(O)C(=O)c3ccccc3C2=O)cs1", "cell line": "HEK293-A GFP-LC3B", "test": "LC3B puncta formation", "conditions": "22 h, added: chloroquine, torin1", "IC50": "> 20 µM"}
{"SMILES": "O=C(NCc1cc(F)cc(F)c1)[C@@]1(O)CCN(c2ccc3[nH]ccc3c2)C1=O", "cell line": "C6", "test": "cell growth or viability", "IC50": "1 µM"}
{"SMILES": "CNS(=O)(=O)Nc1nccc(Cc2c(C)c3ccc(Oc4ncccc4F)cc3oc2=O)c1F", "cell line": "SW780", "test": "cell viability", "conditions": "7 days", "IC50": "0.0216 µM"}
